Results from different studies.
Each line is one published result; not all experiments were run side by side. ± marks the error that the study gave.

Compound	test	test system	setting	how to read	endpoint	result
COc1cccc(C2(O)CCCCC2CN(C)C)c1 (centres unmarked)	joint PK model	human, whole blood	oral, two-compartment metabolite model		intercompartmental clearance	0.0509 L/h
CCCCCCC#Cc1cncc(-c2nnc(SCc3cc([N+](=O)[O-])cc([N+](=O)[O-])c3)n2C)c1		mouse liver microsomes	microsomal stability		t1/2	4.8 min
CC(C)(C)[C@H](NC(=O)C(F)(F)F)C(=O)N1C[C@H]2[C@@H]([C@H]1C(=O)N[C@H](C#N)C[C@@H]1CCNC1=O)C2(C)C		hamster hepatocytes			scaled hepatic intrinsic clearance	109 mL/min/kg
Cc1ncc2n1-c1ccc(Cl)cc1C(c1ccccc1F)=NC2		Sprague-Dawley rat, male			unbound intrinsic clearance	4370 mL/min/kg
O=C1c2c(O)c(=O)ccn2N([C@@H]2c3ccccc3SCc3c2ccc(F)c3F)[C@@H]2COCCN12		BALB/c mice, plasma	oral, 15 mg/kg baloxavir marboxil, 2 h		plasma concentration	104 ng/mL
CCN(CC)C(=O)[C@@H]1C=C2c3cccc4[nH]cc(c34)C[C@H]2N(C)C1	measured: abdominal pressure or fullness	healthy volunteers	dose not given, 0 to 12 h	relative to: placebo, direction not given	List of Complaints score	0
COc1ccc2[nH]cc(CCN(C)C)c2c1		1-octanol/phosphate buffer	pH 7.4		distribution coefficient	3.3
Cc1ncc2n1-c1ccc(Cl)cc1C(c1ccccc1F)=NC2		healthy human volunteers, plasma	oral, dose not given, CYP3A probe substrate, together with: momelotinib	relative to: compound alone	AUC0-last ratio	84.1%
O=C(O)CCCO		male Sprague-Dawley rat	intravenous, 600 mg/kg daily, day 5, chronic		respiratory frequency area below curve	4470 breaths
CCCC(C(=O)c1ccc(O)c(OC)c1)N1CCCC1 (centres unmarked)		rat, plasma	subcutaneous, dose not given, after MDPV dosing, median		conjugated fraction	98.2%
CCCCCCCCCCC(=O)O[C@H]1CC[C@H]2[C@H]3[C@H]([C@@H](C)C[C@]12C)[C@H]1CCC(=O)C=C1C[C@H]3C		human serum	300 ng/mL, NaF 25.0 mg/mL		DMA level	not detected
C[C@H]1CN(C(=O)CC#N)[C@]12CCN(c1ncnc3[nH]ccc13)C2		human	oral, 1.5 mg single dose		participants with influenza-like illness	0%
Cc1ncc(OC[C@@]2(c3cccc(F)c3)C[C@H]2C(=O)Nc2ccc(F)cn2)c(C)n1	population PK base model	human, plasma	oral		Q4/F	25.4 L/h
CCCCCn1nc(C(=O)Nc2cccc3ccccc23)c2ccccc21		rat liver microsomes	scaled to whole liver		scaled intrinsic clearance	775 mL/min/kg
COc1cc2c(Oc3ccc4[nH]c(C)cc4c3F)ccnc2cc1OCC1(N)CC1		paediatric refractory sarcoma patients	10 mg		influenza-like illness incidence	25%
Cc1ncc2n1-c1ccc(Cl)cc1C(c1ccccc1F)=NC2		human, plasma	intravenous bolus, 3 µg, mean of subjects		clearance	475 mL/min
C=C1C[C@H]2[C@@H]3CC[C@H](O[C@@H]4O[C@H](C(=O)O)[C@@H](O)[C@H](O)[C@H]4O)[C@@]3(C)CC[C@@H]2[C@@]2(C)C=CC(=O)C=C12		human, postmenopausal women, serum	oral, 25 mg daily, 1 year, UGT2B17 and GSTA1 genotypes		serum concentration	61 nM
C#Cc1ccc2c(c1)C(c1ccccn1)=NCc1c(-c3cnco3)ncn1-2.Cl		dichloromethane	24 h, 25 °C, thermodynamic equilibrium		solubility	711 µg/mL
CCC(CC)COC(=O)[C@H](C)N[P@](=O)(OC[C@H]1O[C@@](C#N)(c2ccc3c(N)ncnn23)[C@H](O)[C@@H]1O)Oc1ccccc1		human			plasma half-life	~60 min
CN/C(=N\[N+](=O)[O-])NCc1cnc(Cl)s1		soil	0 days, nominal 3.3		concentration	2.3 mg/kg dry soil
CCCCCCC#Cc1cncc(-c2nnc(SCc3ccc([N+](=O)[O-])o3)n2C2CC2)c1		human liver microsomes	microsomal stability		t1/2	1.9 min
Cc1cc(=O)n(-c2ccccc2)n1C	ultracentrifugation	human, perfused placenta maternal effluent			unbound fraction	0.97
C[C@]12CC[C@H]3[C@@H](CCC4=CC(=O)CC[C@@]43C)[C@@H]1CC[C@@H]2O		cryopreserved human hepatocytes	1 µM		scaled intrinsic clearance	385 mL/min/kg
CCN1C[C@]2(COC)[C@H](O)C[C@H](OC)[C@@]34[C@@H]5C[C@@]6(O)[C@H](OC(=O)c7ccccc7)[C@@H]5[C@@](OC(C)=O)([C@@H]([C@H](OC)[C@H]23)[C@@H]14)[C@@H](O)[C@@H]6OC		Sprague-Dawley rat, plasma	oral, dose not given, in PCW extract		MRT(0-t)	81.1 ± 2.88 min
O=C(O)CCC(CP(=O)(O)O)C(=O)O (centres unmarked)		male Wistar rat, plasma	ip, 100 mg/kg		Tmax	15 min
O=C1CC[C@H](N2Cc3cc(N4CCN(CC5CCN(c6ccc([C@@H]7c8ccc(O)cc8CC[C@@H]7c7ccccc7)cc6)CC5)CC4)ccc3C2=O)C(=O)N1	measured: Influenza	human	oral, 200 mg, together with: dabigatran etexilate 75 mg		participants with adverse event	4.2%
C[C@]12CC[C@H]3[C@@H](CCC4=CC(=O)CC[C@@]43C)[C@@H]1CC[C@@H]2O		CD-1 mouse liver microsomes	1 µM, pH 7.4		scaled CLint	1660 mL/min/kg
C=C1C[C@H]2[C@@H]3CC[C@H](O)[C@@]3(C)CC[C@@H]2[C@@]2(C)C=CC(=O)C=C12		human, postmenopausal women, serum	dose not given, GSTA1 genotype effect		serum level	no effect
Cc1ncc2n1-c1ccc(Cl)cc1C(c1ccccc1F)=NC2		wild-type mice, plasma	intravenous, 0.3 mg/kg, together with: 14-day BC 500 mg/kg		AUC(0-inf)	0.103 ± 0.0189 µM·h

Some of these lines once more:
Compound	test	test system	setting	how to read	endpoint	result
CCCCCCC#Cc1cncc(-c2nnc(SCc3cc([N+](=O)[O-])cc([N+](=O)[O-])c3)n2C)c1		mouse liver microsomes	microsomal stability		t1/2	4.8 min
CCCCCCC#Cc1cncc(-c2nnc(SCc3ccc([N+](=O)[O-])o3)n2C2CC2)c1		human liver microsomes	microsomal stability		t1/2	1.9 min
Cc1ncc2n1-c1ccc(Cl)cc1C(c1ccccc1F)=NC2		healthy human volunteers, plasma	oral, dose not given, CYP3A probe substrate, together with: momelotinib	relative to: compound alone	AUC0-last ratio	84.1%
